Published values pooled from the literature.
Numbers after ± are the reported error.
GRM2: Metabotropic glutamate receptor 2 (GRM2, Homo sapiens, UniProt Q14416)
UniProt Q14416, sequence (whole entry, looked up): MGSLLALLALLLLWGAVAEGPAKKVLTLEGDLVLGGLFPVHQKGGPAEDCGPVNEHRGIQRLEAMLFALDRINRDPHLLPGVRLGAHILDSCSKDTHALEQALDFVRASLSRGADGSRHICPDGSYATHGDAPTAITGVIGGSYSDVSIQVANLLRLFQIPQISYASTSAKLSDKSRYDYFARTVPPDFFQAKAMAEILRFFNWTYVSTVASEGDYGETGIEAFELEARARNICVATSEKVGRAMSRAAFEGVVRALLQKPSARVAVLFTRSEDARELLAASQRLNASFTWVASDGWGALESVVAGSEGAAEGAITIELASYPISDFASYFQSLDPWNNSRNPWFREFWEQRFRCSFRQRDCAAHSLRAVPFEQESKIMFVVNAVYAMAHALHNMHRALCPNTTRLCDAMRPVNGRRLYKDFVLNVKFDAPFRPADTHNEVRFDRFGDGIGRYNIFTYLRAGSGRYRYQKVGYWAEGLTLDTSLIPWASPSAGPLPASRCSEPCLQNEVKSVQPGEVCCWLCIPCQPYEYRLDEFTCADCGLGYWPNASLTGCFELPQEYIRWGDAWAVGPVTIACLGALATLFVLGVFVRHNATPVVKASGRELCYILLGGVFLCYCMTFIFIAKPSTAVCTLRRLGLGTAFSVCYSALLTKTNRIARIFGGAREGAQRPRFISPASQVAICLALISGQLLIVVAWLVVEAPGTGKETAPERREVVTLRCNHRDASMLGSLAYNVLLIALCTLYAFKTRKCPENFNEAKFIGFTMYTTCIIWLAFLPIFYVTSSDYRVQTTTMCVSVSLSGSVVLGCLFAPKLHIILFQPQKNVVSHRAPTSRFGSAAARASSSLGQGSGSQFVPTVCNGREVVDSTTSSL
UniProt Q9ESK4, sequence (whole entry, looked up): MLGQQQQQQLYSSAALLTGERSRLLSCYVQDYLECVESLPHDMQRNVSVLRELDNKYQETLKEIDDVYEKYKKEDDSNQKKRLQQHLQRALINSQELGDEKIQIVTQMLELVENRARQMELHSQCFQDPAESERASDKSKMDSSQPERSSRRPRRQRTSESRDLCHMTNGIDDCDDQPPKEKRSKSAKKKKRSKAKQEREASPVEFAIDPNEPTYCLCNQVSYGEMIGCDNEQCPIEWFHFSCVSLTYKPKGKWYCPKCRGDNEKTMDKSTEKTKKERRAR
UniProt Q9HC97, sequence (whole entry, looked up): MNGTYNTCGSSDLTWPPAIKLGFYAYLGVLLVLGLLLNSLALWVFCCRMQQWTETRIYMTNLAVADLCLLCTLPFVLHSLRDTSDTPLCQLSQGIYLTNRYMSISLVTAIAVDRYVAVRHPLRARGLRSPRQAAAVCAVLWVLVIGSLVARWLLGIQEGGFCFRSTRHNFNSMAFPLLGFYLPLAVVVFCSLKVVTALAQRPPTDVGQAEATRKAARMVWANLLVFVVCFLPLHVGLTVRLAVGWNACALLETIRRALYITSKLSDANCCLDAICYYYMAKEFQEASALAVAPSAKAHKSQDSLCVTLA

Under “seizure latency increase”, CCCC(CCC)C(=O)O is recorded as 67.3% (refers to: latency to stage 3; male mice, pilocarpine-induced seizures; oral, 20 mg/kg, dosed 30 min before pilocarpine, added: pilocarpine 300 mg/kg i.p.; baseline: pilocarpine vehicle group).
O=c1c(O)c(-c2ccc(O)c(O)c2)oc2cc(O)cc(O)c12 has an IC50 of 18.6 µM (DPPH scavenging).
The IC50 of Cc1ccc(C=NNC(=S)N[N+](=O)[O-])cc1 is reported as 680 µM (Leishmania major; parasite growth; J774.A1; 72 h, intracellular, amastigote).
COc1ccc(NC(=O)CSc2nc3ccccc3cc2C=Nn2c(S)nnc2-c2ccccc2)cc1 has an IC50 of 98.9 µM (DPPH scavenging).
The EC50 of CCCCn1ccn2c(-c3ccc(Oc4ccc(C)nc4C)c(F)c3)c(C)nc2c1=O is reported as 0.029 µM (GRM2; GTPγS binding, positive allosteric modulator; added: EC20 glutamate).
COC(=O)c1cnn(-c2ccc(F)cc2F)c1C=NNC(=S)NC(C)(C)C has an IC50 of 9.17 ± 0.7 µM (GPR35 (Homo sapiens, UniProt Q9HC97); dynamic mass redistribution, antagonist; HT-29; added: DHICA 64 µM).
CCCCn1ccn2c(-c3ccc(Oc4ccccc4)cc3)c(C)nc2c1=O has an Emax of 256 ± 7% (GRM2; GTPγS binding, positive allosteric modulator; added: EC20 glutamate; baseline: control glutamate response).
CCCCc1oc2ccccc2c1C(=O)c1cc(I)c(OCC[N+](C)(C)C)c(I)c1 gave an IC50 of 105 ± 33 µM (Inhibitor of growth protein 2, PHD finger (Ing2, Mus musculus, UniProt Q9ESK4); fluorescence polarization).
